Published values of several laboratories.
Lines come from different studies, so protocols differ.
Organism: Leishmania amazonensis

SMILES	observed	technique	cell line	strain	time	setting	IC50 [µM]
CCOC(=O)c1csc(NN=Cc2ccccc2O)n1	parasite growth				72 h	promastigote	485
N#C/C=C/C(=O)Oc1cccc(F)c1	parasite growth	resazurin			72 h	promastigote	28.4
COC(=O)Cn1c2ccc([N+](=O)[O-])cc2c(=O)n1Cc1ccccc1	parasite growth	resazurin			72 h	promastigote	0.6
CC(C)(C)CC(C)(C)Nc1c(-c2ccc3c(c2)OCO3)nc2ncccn12		fluorimetry	peritoneal macrophages	RFP	72 h	intracellular amastigotes	> 100
C/C(=C\c1ccco1)[N+](=O)[O-]	parasite growth				72 h	promastigote	2.2
NCCCn1c2ccc([N+](=O)[O-])cc2c(=O)n1Cc1ccccc1	parasite growth	resazurin			72 h	promastigote	1.3
CC(C)(C)c1ccc(OC(=O)/C=C/C#N)cc1	parasite growth	resazurin	mouse Macrophage		24 h	intracellular, amastigote	67.2
Cn1c2ccc([N+](=O)[O-])cc2c(=O)n1Cc1ccccc1	parasite growth	resazurin			72 h	promastigote	2
CCOC(=O)c1csc(NN=Cc2ccccc2[N+](=O)[O-])n1	parasite growth				72 h	promastigote	359
COc1ccc(OC(=O)/C=C/C#N)cc1	parasite growth	resazurin			72 h	promastigote	27.1
O=[N+]([O-])/C(Br)=C/c1ccco1	parasite growth				72 h	promastigote	2.9

For quick reference, copied from above:
SMILES	observed	technique	cell line	strain	time	setting	IC50 [µM]
CC(C)(C)c1ccc(OC(=O)/C=C/C#N)cc1	parasite growth	resazurin	mouse Macrophage		24 h	intracellular, amastigote	67.2
Cn1c2ccc([N+](=O)[O-])cc2c(=O)n1Cc1ccccc1	parasite growth	resazurin			72 h	promastigote	2
